Results of several laboratories.
Lines come from different studies, so protocols differ. ± gives the spread as reported.

SMILES | assay | system | conditions | scale | endpoint | result
COc1cccc(OCCN2CCC[C@H](CN3CCc4cc(OC)c(OC)cc4CC3=O)C2)c1 | open field test | male and female C57BL/6J mice | intraperitoneal, 5 mg/kg | reference: saline | locomotion velocity and distance | no effect
NS(=O)(=O)NCC(O)c1ccccc1F (stereo not shown) | MES seizures | mouse | intraperitoneal | – | ED50 | 75 mg/kg
COC(=O)C=CCCC(NC(=O)c1ccncc1C(=O)O)C(=O)NC(C(=O)N1CC(=O)CC1C(=O)NC(C(=O)NC(C(N)=O)C1CCCCC1)C1CCCCC1)C(C)(C)C (stereo not shown) | – | New Zealand White rabbit | dose not given, venous stasis | – | thrombus length | 11 ± 1 mm
Cc1cc2c(cc1C1(c3ncc(C(=O)O)cn3)CC1)C(C)(C)CCC2(C)C | RNA sequencing, item: Pdk4 | rat, brain | dose not given, 24 h | reference: vehicle | log2 fold change | -0.07
O=C1c2c(O)cc(O)c(-c3ccc(O)c(O)c3)c2OC1Cc1ccc(O)c(O)c1 (stereo not shown) | DPPH scavenging, absorbance | – | – | – | EC50 | 60 µM
Nc1nc2cc(CC[C@H]3C[C@@H](n4ccc5c(N)ncnc54)[C@H](O)[C@@H]3O)ccc2cc1Br | inhibitor, item: SmD1/3 dimethylarginine | mice, NCI-H1048 xenograft, tumour | 10 mg/kg, 144 h, after 6 days treatment | – | reduction | > 95%
CCCCCCOC(=O)Cc1c(C)n(C(=O)c2ccc(Cl)cc2)c2ccc(OC)cc12 | hot plate test | BALB/c mice | 50 mg/kg, 0 min | – | latency of nociceptive response | 9.54 ± 0.32 s
CCN(CC)CCn1nc(C23CC4CC(CC(C4)C2)C3)n(C)c1=S | paw oedema | rat | intraperitoneal, 20 mg/kg | – | inhibition in vivo | 17.3%
CSCC[C@@H]1NC(=O)[C@H](C)NC(=O)[C@H]([C@@H](C)O)NC(=O)CNC(=O)[C@H](CC(C)C)NC(=O)[C@H](CCC(N)=O)NC(=O)[C@H](CCCNC(=N)N)NC(=O)[C@@H]2CSSC[C@@H]3NC(=O)[C@@H]4CCCN4C(=O)[C@H](C(C)C)NC(=O)[C@H](CCC(N)=O)NC(=O)[C@H](CCC(N)=O)NC(=O)CNC(=O)[C@H](CC(C)C)NC(=O)[C@@H]4CSSC[C@H](NC(=O)[C@H]([C@@H](C)O)NC(=O)[C@H](C)NC(=O)[C@H](CSSC[C@@H](C(=O)N[C@@H](CO)C(=O)N[C@@H](CCC(N)=O)C(=O)N[C@H](C(N)=O)[C@@H](C)O)NC(=O)[C@@H]5CCCN5C(=O)[C@H](CC(N)=O)NC1=O)NC(=O)[C@@H]1CCCN1C(=O)[C@H](CC(=O)O)NC(=O)[C@H](CSSC[C@H](NC(=O)[C@H](CCC(N)=O)NC(=O)[C@H](CCC(N)=O)NC(=O)[C@H](CO)NC(=O)[C@@H](N)CO)C(=O)N[C@@H](C(C)C)C(=O)N[C@@H](CCCNC(=N)N)C(=O)N[C@@H](CC(C)C)C(=O)N[C@@H](Cc1c[nH]cn1)C(=O)N[C@@H](CCC(=O)O)C(=O)N[C@@H](CO)C(=O)N4)NC3=O)C(=O)N[C@@H](Cc1ccc(O)cc1)C(=O)N[C@H]1CSSC[C@H](NC(=O)[C@H](Cc3ccccc3)NC(=O)[C@H](C)NC(=O)[C@H](CC(N)=O)NC(=O)[C@H](Cc3ccccc3)NC(=O)[C@H](Cc3ccccc3)NC(=O)[C@H](CCCNC(=N)N)NC1=O)C(=O)N[C@@H](Cc1ccc(O)cc1)C(=O)N2 | – | Long-Evans rat, male | intracerebroventricular, 1.0 nmol, day 3, non-cumulative | reference: saline | food intake | -3.45 ± 0.2 % above saline
CCc1nnc(NS(=O)(=O)c2ccc(NC(=S)NC(=O)/C=C/c3ccc(F)cc3)cc2)s1 | cell proliferation | athymic nude mice, SK-N-AS xenograft, tumour | i.p., 20 mg/kg daily, 18 days | – | reduction of Ki-67 staining | 55%
COC(=O)C(Cc1c[nH]cn1)NC(=O)C1(C)C(O)CCC2(C)C1CCC1(C)C2CC=C2C3C(C)C(C)CCC3(C)CCC21C (stereo not shown) | – | rat TNBS-induced colitis | oral, dose not given, day 6 | direction not given | clinical activity score | 3 ± 1
O=c1c(OCc2ccccc2)c(-c2ccc(Cl)cc2)oc2ccccc12 | – | diabetic rat | 5 mg/kg, day 7, p-nitrophenyl β-glucoside induced | – | blood glucose | 335 ± 4.81 mg/dL
N#Cc1cc(C(=O)OCC[18F])c(C(F)(F)F)nc1N1CCN(C(=O)Cc2ccccc2)CC1 | PET | human, epileptic focus | – | – | SUVmean | 1.29 ± 0.28
O=C1/C(=C/c2ccccc2)Oc2cc(O)c(-c3ccc(O)c(O)c3)c(O)c21 | DPPH scavenging, absorbance | – | – | – | EC50 | 130 µM
COc1cc(CN2CCN(c3ccc([N+](=O)[O-])cc3)CC2)c2cc3[n+](cc2c1O)CCc1cc2c(cc1-3)OCO2 | ABTS scavenging, absorbance | – | 10 min | – | IC50 | 8.79 µg/mL
Cc1cc(O)cc(O)c1C(=O)c1c2c3c(c(O)cc(C)c3oc1=O)C(=O)c1c(O)cc(O)cc1-2 | – | Bel-7402 xenograft, mouse | intraperitoneal, 14 mg/kg, day 21 | – | T/C | 51.2%
COc1ccc(C2CC(c3ccc(C)cc3)=Nc3ccccc3S2)cc1 (stereo not shown) | – | Wistar rat, STZ-induced diabetes, serum | 10 mg/kg, 28 days | – | triglycerides | 142 ± 4.39 mg/dL
CC[C@H]1[C@@H](O)[C@@H]2[C@H](CC[C@]3(C)[C@@H]([C@H](C)CCOS(=O)(=O)[O-])CC[C@@H]23)[C@@]2(C)CC[C@@H](O)C[C@@H]12.[Na+] | immunohistochemistry, item: collagen 1a1 | ob/ob NASH mouse model, liver | 10 mg/kg, 16 weeks | – | fractional area | 5 ± 0.3%
O=C(NCc1cc(F)cc(F)c1)[C@@]1(O)CCN(c2ccc3[nH]ccc3c2)C1=O | – | CAKI-1 xenograft, mouse | oral, 50 mg/kg twice daily | – | T/C | 16%

SMILES | assay | system | conditions | scale | endpoint | result
CCN(CC)CCSc1nnc(C23CC4CC(CC(C4)C2)C3)n1C | paw oedema | rat | intraperitoneal, 20 mg/kg | – | inhibition in vivo | -1.42%
Cc1ccc(-c2oc3ccccc3c(=O)c2OCc2ccccc2)cc1 | – | diabetic rat | 7.5 mg/kg, day 7, p-nitrophenyl β-glucoside induced | – | blood glucose | 330 ± 3.96 mg/dL
CCc1nc(-c2ccc(-c3ccc(CCC(N)(CO)CO)cc3)cc2)co1 | flow cytometry | BALB/c mouse, imiquimod psoriasis model, blood and spleen | dose not given | reference: imiquimod model group | CD3+ T cells | decreased
COc1ccc(-c2oc3ccccc3c(=O)c2OCc2ccccc2)cc1 | – | diabetic rat | 5 mg/kg, day 21, p-nitrophenyl β-glucoside induced | – | blood glucose | 149 ± 4.83 mg/dL
Fc1ccc2[nH]c(-c3ccco3)nc2c1 | ABTS scavenging, absorbance | – | – | – | IC50 | 1.4 µM
COc1ccc2c(c1OC)C(C(Cl)(Cl)Cl)N1CCc3cc4c(cc3C1=C2)OCO4 (stereo not shown) | – | rat, STZ-induced diabetic, liver | oral, 12 mg/kg, day 28 | – | catalase activity | 33.8 ± 1.39 U/mg protein
C[C@@H](O)[C@@H]1NC(=O)[C@H](CCCCN)NC(=O)[C@@H](Cc2ccc(NC(N)=O)cc2)NC(=O)[C@H](Cc2ccc(NC(=O)[C@@H]3CC(=O)NC(=O)N3)cc2)NC(=O)[C@H](NC(=O)[C@H](Cc2ccc(Cl)cc2)NC(=O)CN2CCN(CC(=O)O)CCN(CC(=O)O)CCN(CC(=O)O)CC2)CSSC[C@@H](C(=O)N[C@H](Cc2ccc(O)cc2)C(N)=O)NC1=O [gallium-68 labelled] | PET/CT | human neuroendocrine tumour patients, all lesions | 60 min | – | SUVpeak | 18 ± 19
CCOC(=O)C1NC(c2ccc[n+](C)c2)C23c4c5c6c7c8c9c(c%10c%11c2c2c4c4c%12c5c5c6c6c8c8c%13c9c9c%10c%10c%11c%11c2c2c4c4c%12c%12c5c5c6c8c6c8c%13c9c9c%10c%10c%11c2c2c4c4c%12c5c6c5c8c9c%10c2c45)C713 (stereo not shown) | – | SCID mouse, BCBL1 PEL xenograft | intraperitoneal, 20 mg/kg, day 21 | reference: DMSO | ascites tumour weight | decreased
Cc1ccc(C2=C(c3ccc([18F])cc3)C(=O)OC2(C)C)cc1 | PET/CT | mouse, SK-OV-3/COX-1 peritoneal tumour, muscle | retro-orbital, 5 min | – | normalized muscle uptake | 3.4 ± 0.9
O=c1c(OCc2ccccc2)c(-c2ccc([N+](=O)[O-])cc2)oc2ccccc12 | – | diabetic rat | 5 mg/kg, day 14, p-nitrophenyl β-glucoside induced | – | blood glucose | 243 ± 4.79 mg/dL
O=C1/C(=C/c2ccc(O)cc2)Oc2c1c(O)cc(O)c2-c1ccc(O)c(O)c1 | DPPH scavenging, absorbance | – | – | – | EC50 | 80 µM
Cc1cc(O)c(C=O)c2c1C(=O)Oc1c(CO)c(O)c3c(c1O2)C(O)OC3=O (stereo not shown) | ABTS scavenging | – | – | – | IC50 | 121 µM
COc1ccc(C2CC(c3ccc(C)cc3)=Nc3ccccc3S2)cc1OC (stereo not shown) | – | Wistar rat, STZ-induced diabetes, serum | 20 mg/kg, 28 days | – | alkaline phosphatase | 198 IU/L
O=c1c(OCc2ccccc2)c(-c2cccc([N+](=O)[O-])c2)oc2ccccc12 | – | diabetic rat | 5 mg/kg, day 28, p-nitrophenyl β-glucoside induced | – | blood glucose | 153 ± 4.73 mg/dL
CSCC[C@@H]1NC(=O)[C@H](CCCCN)NC(=O)[C@H]([C@@H](C)O)NC(=O)[C@H](CCCCN)NC(=O)[C@H](CC(C)C)NC(=O)[C@H](CCCCN)NC(=O)[C@H](CCCNC(=N)N)NC(=O)[C@@H]2CSSC[C@@H]3NC(=O)[C@@H]4CCCN4C(=O)[C@H](C(C)C)NC(=O)[C@H](CCC(N)=O)NC(=O)[C@H](CCC(N)=O)NC(=O)CNC(=O)[C@H](CC(C)C)NC(=O)[C@@H]4CSSC[C@H](NC(=O)[C@H]([C@@H](C)O)NC(=O)[C@H](C)NC(=O)[C@H](CSSC[C@@H](C(=O)N[C@@H](CO)C(=O)N[C@@H](CCCNC(=N)N)C(=O)N[C@H](C(N)=O)[C@@H](C)O)NC(=O)[C@@H]5CCCN5C(=O)[C@H](CC(N)=O)NC1=O)NC(=O)[C@@H]1CCCN1C(=O)[C@H](CC(=O)O)NC(=O)[C@H](CSSC[C@H](NC(=O)[C@H](CCCNC(=N)N)NC(=O)[C@H](CCCNC(=N)N)NC(=O)[C@H](CO)NC(=O)[C@@H](N)CO)C(=O)N[C@@H](C(C)C)C(=O)N[C@@H](CCCNC(=N)N)C(=O)N[C@@H](CC(C)C)C(=O)N[C@@H](Cc1c[nH]cn1)C(=O)N[C@@H](CCC(=O)O)C(=O)N[C@@H](CO)C(=O)N4)NC3=O)C(=O)N[C@@H](Cc1ccc(O)cc1)C(=O)N[C@H]1CSSC[C@H](NC(=O)[C@H](Cc3ccccc3)NC(=O)[C@H](C)NC(=O)[C@H](CC(N)=O)NC(=O)[C@H](Cc3ccccc3)NC(=O)[C@H](Cc3ccccc3)NC(=O)[C@H](CCCNC(=N)N)NC1=O)C(=O)N[C@@H](Cc1ccc(O)cc1)C(=O)N2 | – | Long-Evans rat, male | intracerebroventricular, 1.0 nmol, day 3, non-cumulative | reference: saline | food intake | 77.3 ± 4.3 % above saline
N=C(N)NCCC[C@H](NC(=O)[C@@H]1CCCN1C(=O)[C@@H]1CSSCCC(=O)N[C@]2(CC[C@@H](c3ccccc3)CC2)C(=O)N[C@@H](Cc2ccccc2)C(=O)N[C@@H](CCC(N)=O)C(=O)N[C@@H](CC(N)=O)C(=O)N1)C(=O)NCC(N)=O | anti-oxytocic activity, antagonist | isolated rat uterus strips | without Mg2+ | – | pA2 | 8.46
CN(C)c1ccc(-c2oc3ccccc3c(=O)c2OCc2ccccc2)cc1 | – | diabetic rat | 7.5 mg/kg, day 14, p-nitrophenyl β-glucoside induced | – | blood glucose | 210 ± 4.56 mg/dL
O=C1NC(=O)C(C2CCOc3cc(Oc4ccc(C(F)(F)F)cc4Cl)ccc32)S1 (stereo not shown) | – | mouse, fasted, plasma | oral, 30 mg/kg, 30 min, median | – | plasma GIP | 108 pmol/L

Excerpt of the above:
SMILES | assay | system | conditions | scale | endpoint | result
Cc1cc2c(cc1C1(c3ncc(C(=O)O)cn3)CC1)C(C)(C)CCC2(C)C | RNA sequencing, item: Pdk4 | rat, brain | dose not given, 24 h | reference: vehicle | log2 fold change | -0.07
O=C1c2c(O)cc(O)c(-c3ccc(O)c(O)c3)c2OC1Cc1ccc(O)c(O)c1 (stereo not shown) | DPPH scavenging, absorbance | – | – | – | EC50 | 60 µM
Nc1nc2cc(CC[C@H]3C[C@@H](n4ccc5c(N)ncnc54)[C@H](O)[C@@H]3O)ccc2cc1Br | inhibitor, item: SmD1/3 dimethylarginine | mice, NCI-H1048 xenograft, tumour | 10 mg/kg, 144 h, after 6 days treatment | – | reduction | > 95%
CCCCCCOC(=O)Cc1c(C)n(C(=O)c2ccc(Cl)cc2)c2ccc(OC)cc12 | hot plate test | BALB/c mice | 50 mg/kg, 0 min | – | latency of nociceptive response | 9.54 ± 0.32 s
CCN(CC)CCn1nc(C23CC4CC(CC(C4)C2)C3)n(C)c1=S | paw oedema | rat | intraperitoneal, 20 mg/kg | – | inhibition in vivo | 17.3%
